Measurements collected from several papers.
Compare with care: the assays were run in different laboratories.
T1: RNA aptamer; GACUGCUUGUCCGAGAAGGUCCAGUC
T2: RNA aptamer, 2'-F pyrimidines; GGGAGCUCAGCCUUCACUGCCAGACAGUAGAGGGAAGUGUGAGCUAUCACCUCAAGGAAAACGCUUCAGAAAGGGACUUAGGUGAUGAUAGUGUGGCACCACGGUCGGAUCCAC
T3: RNA aptamer A9G; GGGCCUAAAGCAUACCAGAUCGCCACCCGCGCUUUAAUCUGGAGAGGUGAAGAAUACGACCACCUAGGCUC
T4: RNA aptamer; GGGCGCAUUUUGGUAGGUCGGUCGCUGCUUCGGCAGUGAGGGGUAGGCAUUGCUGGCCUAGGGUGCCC
T5: RNA aptamer; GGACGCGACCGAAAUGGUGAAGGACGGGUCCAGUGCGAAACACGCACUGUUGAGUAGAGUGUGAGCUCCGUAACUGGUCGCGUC
T6: RNA aptamer truncated FMN aptamer; GGUACUUCGGGAAG
T7: RNA aptamer; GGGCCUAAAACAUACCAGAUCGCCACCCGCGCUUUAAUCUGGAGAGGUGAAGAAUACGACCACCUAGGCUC
T8: RNA aptamer A50U; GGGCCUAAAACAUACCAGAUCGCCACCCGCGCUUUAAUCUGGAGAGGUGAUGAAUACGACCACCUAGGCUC

| Compound | target | method | pH | temperature | setting | Kd |
| --- | --- | --- | --- | --- | --- | --- |
| NC[C@@H]1O[C@H](O[C@H]2[C@@H](O)[C@H](O[C@@H]3[C@@H](O)[C@H](N)C[C@H](N)[C@H]3O[C@H]3O[C@H](CN)[C@@H](O)[C@H](O)[C@H]3N)O[C@@H]2CO)[C@H](N)[C@@H](O)[C@@H]1O | T1, RNA aptamer | ITC | – | – | NaCl 200 mM | 9.5 nM |
| CN[C@@H]1[C@H](O[C@H]2[C@H](O[C@H]3[C@H](O)[C@@H](O)[C@H](N=C(N)N)[C@@H](O)[C@@H]3N=C(N)N)O[C@@H](C)[C@]2(O)C=NNC(=O)CCOCCOCCOCCOCCNC(=O)CCCC[C@@H]2SC[C@@H]3NC(=O)N[C@@H]32)O[C@@H](CO)[C@H](O)[C@H]1O | T2, RNA aptamer, 2'-F pyrimidines | SPR | – | – | apparent | 212 nM |
| CN(C)[C@@H]1C(=O)C(C(N)=O)=C(O)[C@@]2(O)C(=O)C3=C(O)c4c(O)cccc4[C@@](C)(O)[C@H]3[C@H](O)[C@@H]12 | T3, RNA aptamer A9G | fluorescence titration | pH 7.5 | 25 °C | MgCl2 10 mM | 445 nM |
| Nc1nc2c(ncn2[C@@H]2O[C@H](COP(=O)(O)OP(=O)(O)OP(=O)(O)O)[C@@H](O)[C@H]2O)c(=O)[nH]1 | T4, RNA aptamer | ITC | pH 6.5 | 20 °C | NH4Cl 50 mM | 3100 nM |
| CN1C=CC(=Cc2sc3ccccc3[n+]2CC(=O)NCCOCCOCCOCCNC(=O)CCCC[C@@H]2SC[C@@H]3NC(=O)N[C@@H]32)c2ccccc21 | T5, RNA aptamer | fluorescence titration | – | – | 140 mM KCl, room temperature | 830 nM |
| Cc1cc2nc3c(=O)[nH]c(=O)nc-3n(C[C@H](O)[C@H](O)[C@H](O)COP(=O)(O)O)c2cc1C | T6, RNA aptamer truncated FMN aptamer | fluorescence quenching | – | – | – | 4100 nM |
| CN(C)[C@@H]1C(=O)C(C(N)=O)=C(O)[C@@]2(O)C(=O)C3=C(O)c4c(O)ccc(Cl)c4[C@@](C)(O)[C@H]3C[C@@H]12 | T7, RNA aptamer | fluorescence titration | pH 7.5 | 25 °C | MgCl2 10 mM | 0.573 nM |
| Cc1cc2nc3c(=O)[nH]c(=O)nc-3n(C[C@H](O)[C@H](O)[C@H](O)CO)c2cc1C | T6, RNA aptamer truncated FMN aptamer | fluorescence quenching | – | – | – | 12500 nM |
| CN(C)C1C(O)=C(C#N)C(=O)C2(O)C(O)=C3C(=O)c4c(O)cccc4C(C)(O)C3CC12 (stereo not drawn) | T8, RNA aptamer A50U | fluorescence titration | pH 7.5 | 25 °C | MgCl2 10 mM | 2570 nM |

A few entries again:
| Compound | target | method | pH | temperature | setting | Kd |
| --- | --- | --- | --- | --- | --- | --- |
| Cc1cc2nc3c(=O)[nH]c(=O)nc-3n(C[C@H](O)[C@H](O)[C@H](O)COP(=O)(O)O)c2cc1C | T6, RNA aptamer truncated FMN aptamer | fluorescence quenching | – | – | – | 4100 nM |
